Published values of several laboratories.
Every numbered part comes from another study and shows a few of its results, in no order. Substitutions count along the parent as printed.

Series 1 — technique: RNA Bind-n-Seq; molecule type: RNA; sample: in vitro; concentration: 200 nM; setting: whole 134-nt RNA, ends assumed; added: 150 mM KCl; baseline: input library; direction: higher = stronger binding
Target: Fragile X messenger ribonucleoprotein 1, C-terminal low-complexity region (Fmr1, Mus musculus, UniProt P35922)
Sequence | log2 enrichment
GGGAGUUCUACAGUCCGACGAUCGAGCAAAGAGCCAUUCAGCUUCAGUCUUUACAUACCAUGAAUAAAACAUUAAAACAUCAUAUGGAGAAGUUUACAUGGUGAUUGUUCACCUGGAAUUCUCGGGUGUCAAGG | -0.326
GGGAGUUCUACAGUCCGACGAUCGAUGAUUACUAUGGUUAUGAUUAUCACGACUAUCGUGGAGGCUAUGAAGAUCCCUACUACGGCUAUGAUGAUGGCUAUGCAGUAAGAGGAUGGAAUUCUCGGGUGUCAAGG | -1.55
GGGAGUUCUACAGUCCGACGAUCUCCUCAAGUCCUGUGCUACACAUCGUAUGUACCGAAUCGGGAGGAGGGAGGGAAAGUAUUAUGUUACGCCGUUCGGAUCUGCACUUCCAGUGGAAUUCUCGGGUGUCAAGG | 1.38
GGGAGUUCUACAGUCCGACGAUCUAUUGGACACAGUGCCCCGCUGAACAGCAGCUGUUCCCAGCGCCAGAGGACCCCACAGCCACAGUAGGAGCUUUGCGACCCCUACGCAACUGGAAUUCUCGGGUGUCAAGG | -0.999

Series 2 — technique: aptamer microarray, sandwich; molecule type: DNA with 2'F-ANA; sample: in vitro; concentration: 200 nM; added: Cy3 exosite-II aptamer, 400 nM; direction: higher = stronger binding; sequence: GGTTGGTGTGGTTGG
Target: Prothrombin, mature alpha-thrombin (F2, Homo sapiens, UniProt P00734)
Setting: whole 15-mer aptamer, many near background
Modification | mean fluorescence intensity [a.u.]
2'F-ANA at 4 7 9 10 11 12 14 | 65.7
2'F-ANA at 3 9 15 | 1040
2'F-ANA at 1 2 4 5 6 12 13 15 | 70.8
2'F-ANA at 2 5 7 9 10 11 12 13 14 15 | 47
2'F-ANA at 1 2 3 4 6 8 13 | 123
2'F-ANA at 1 5 6 7 11 13 14 | 56.3

Series 3 — target: CCNB2, cyclin fold, Cln2 fusion (human); technique: yeast growth competition, sequencing; sample: yeast; setting: weak parent motif; baseline: not given; direction: higher = stronger binding
Starting sequence: PKN2 docking peptide (human); VSAVRKLDFSDTM; partner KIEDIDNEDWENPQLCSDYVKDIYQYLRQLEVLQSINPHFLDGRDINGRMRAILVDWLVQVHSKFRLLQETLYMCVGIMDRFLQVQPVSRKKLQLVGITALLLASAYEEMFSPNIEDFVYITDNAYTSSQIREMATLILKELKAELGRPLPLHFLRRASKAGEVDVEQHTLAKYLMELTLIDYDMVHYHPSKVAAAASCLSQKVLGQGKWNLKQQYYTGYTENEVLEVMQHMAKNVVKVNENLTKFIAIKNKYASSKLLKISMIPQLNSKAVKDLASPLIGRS
Substitution | normalised enrichment score
VSAVRKLDRSDTM [F9R] | 0.0452
VSAGRKLDFSDTM [V4G] | -0.166
VSAVRKLDFSPTM [D11P] | 0.385
VSSVRKLDFSDTM [A3S] | 0.273
VSALRKLDFSDTM [V4L] | 0.375
VSARRKLDFSDTM [V4R] | 1.73

Single results of other studies
Molecule | target | test | system | setting | how to read | endpoint | result
PhoQ, residues 284 288 289 292 302 303 SLGVVW | PhoP, residues 12 14 15 18 19 SPWRL (Escherichia coli, UniProt P23836) | Sort-seq, measured: YFP reporter | E. coli | PhoQ-PhoP variant library, added: 10 µM Mg2+ | baseline: high Mg2+ state, higher = stronger signaling | fold induction | 16.3

Some of these lines once more (series 3):
Substitution | normalised enrichment score
VSAVRKLDRSDTM [F9R] | 0.0452
